# Experimental data gathered from unrelated publications.
# Every numbered part comes from another study and shows a few of its results, in no order.

# Study 1 — technique: RNA Bind-n-Seq; molecule type: RNA; medium: in vitro; tested at: 1 µM; setting: whole 134-nt RNA, ends assumed; with: 150 mM KCl; relative to: input library; direction: higher = stronger binding
# Target: Ras GTPase-activating protein-binding protein 1, C-terminal RGG region (G3BP1, Homo sapiens, UniProt Q13283)
# UniProt Q13283, sequence (whole entry, looked up): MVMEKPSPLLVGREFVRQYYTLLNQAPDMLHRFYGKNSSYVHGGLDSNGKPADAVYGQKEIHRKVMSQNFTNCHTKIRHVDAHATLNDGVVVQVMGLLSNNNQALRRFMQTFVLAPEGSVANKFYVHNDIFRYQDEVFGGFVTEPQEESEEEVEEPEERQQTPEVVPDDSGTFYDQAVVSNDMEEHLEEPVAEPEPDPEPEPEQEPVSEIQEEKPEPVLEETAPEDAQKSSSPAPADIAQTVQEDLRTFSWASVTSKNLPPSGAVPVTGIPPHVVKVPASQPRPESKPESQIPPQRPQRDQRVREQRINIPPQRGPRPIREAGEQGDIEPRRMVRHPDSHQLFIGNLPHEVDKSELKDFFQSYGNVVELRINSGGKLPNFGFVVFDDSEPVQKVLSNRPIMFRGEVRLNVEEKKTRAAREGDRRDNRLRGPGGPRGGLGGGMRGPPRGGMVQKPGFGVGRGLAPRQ
Strand,log2 enrichment
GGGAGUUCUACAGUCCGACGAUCUUUGAAGGUGAUUUCUGGCCCAAUGUGUUAGAAGAGAGCAUUAAGGAACUAGAACAAGAAGAAGAGGAGAGGAAAAAGGAAGAGAGCACUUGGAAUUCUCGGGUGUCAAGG,-1.49
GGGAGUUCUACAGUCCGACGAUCUAACUUUAGAGGAGGAUCUGAUGGAUAUGUCAGUGGACGUGGAUUUGGGGAUGGCUAUAAUGGGUAUGGAGGAGGACCUGGAGGUGGCAAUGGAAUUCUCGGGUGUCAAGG,-1.39
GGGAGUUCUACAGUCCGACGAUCCACAGACAACACGCACCCACACAGACACAGAGGGAAGGGGUUGAGAUGGGGACAGGGUGCACAGCAGGGCGGGGUAGGACCCCAGCCCCUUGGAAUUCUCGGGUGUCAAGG,-0.662
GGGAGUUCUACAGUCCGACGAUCAAGUCCUGUGCUACACAUCGUAUGUACCGAAUCGGGCCCGGGGCCCGGGCCCGGGGAAAGUAUUAUGUUACGCCGUUCGGAUCUGCACUUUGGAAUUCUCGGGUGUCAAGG,-2.48
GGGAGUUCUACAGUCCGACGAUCUGGGAGGUGGAUUUUGUUUAUUUUUUUAGCUCAUUUCCAGGGGUGGGAAUUUUUUUUUAAUAUGUGUCAUGAAUAAAGAUGUUUUUGAAAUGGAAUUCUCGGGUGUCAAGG,3.11
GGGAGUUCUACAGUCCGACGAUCAAGUCCUGUGCUACACAUCGUAUGUACCGAAUCGGAAAAAAAGGAAAAAAAGGUGGAAAGUAUUAUGUUACGCCGUUCGGAUCUGCACUUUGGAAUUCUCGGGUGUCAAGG,-1.81
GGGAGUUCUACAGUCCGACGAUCCCUCAAGUCCUGUGCUACACAUCGUAUGUACCGAAUCGGGGUUGGUUGGUUGGAAAGUAUUAUGUUACGCCGUUCGGAUCUGCACUUCCAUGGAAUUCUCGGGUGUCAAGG,-0.738
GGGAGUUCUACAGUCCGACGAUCCAAGUCCUGUGCUACACAUCGUAUGUACCGAAUCGGUUUGGUUUGGGGUUUGGGGAAAGUAUUAUGUUACGCCGUUCGGAUCUGCACUUCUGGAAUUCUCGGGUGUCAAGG,-0.752
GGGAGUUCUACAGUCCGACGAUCAAGUCCUGUGCUACACAUCGUAUGUACCGAAUCGGCCCCGGGCCCCGGGCCCCGGGGAAAGUAUUAUGUUACGCCGUUCGGAUCUGCACUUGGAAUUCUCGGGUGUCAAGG,-2.12

# Study 2 — technique: universal PBM; molecule type: double-stranded DNA, one strand shown; medium: in vitro; tested at: not given; direction: higher = stronger binding
# Target: Sal-like protein 4, full length isoform B (SALL4, Homo sapiens, UniProt Q9UJQ4-2, residues 1-616)
# Setting: 8-mer, flanks averaged, mean of replicates
# Construct (chain): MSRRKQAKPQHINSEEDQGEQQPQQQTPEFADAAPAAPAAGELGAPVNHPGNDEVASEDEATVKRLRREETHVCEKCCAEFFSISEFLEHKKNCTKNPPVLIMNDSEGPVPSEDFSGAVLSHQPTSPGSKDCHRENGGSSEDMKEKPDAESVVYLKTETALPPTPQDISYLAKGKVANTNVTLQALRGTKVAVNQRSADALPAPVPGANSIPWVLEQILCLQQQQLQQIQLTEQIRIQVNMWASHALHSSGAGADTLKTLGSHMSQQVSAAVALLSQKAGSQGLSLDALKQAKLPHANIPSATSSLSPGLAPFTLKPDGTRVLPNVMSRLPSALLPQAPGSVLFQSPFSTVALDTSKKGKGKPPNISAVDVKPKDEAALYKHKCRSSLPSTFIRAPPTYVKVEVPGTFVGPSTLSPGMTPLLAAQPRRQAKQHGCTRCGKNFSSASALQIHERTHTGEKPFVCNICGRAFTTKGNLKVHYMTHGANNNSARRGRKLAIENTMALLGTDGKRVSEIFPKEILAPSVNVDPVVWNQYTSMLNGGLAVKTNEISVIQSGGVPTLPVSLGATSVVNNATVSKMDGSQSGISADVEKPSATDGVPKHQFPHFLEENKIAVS
Strand,E-score
GACCTCGA,-0.142
AGAAGAGA,0.0111
CTAAACAC,0.192
GACCAGGA,-0.234
CGAACGTC,-0.158
ACCCCGGC,-0.293
CTAGTCTC,-0.0209
CTGAGCCA,-0.252
CATGGCAA,-0.0166
AGTTATAC,0.284
CTTACTGA,0.113
GGGGCTGA,-0.167
AATCAATG,0.237
CAGAGTAA,-0.0157
GCCCCCAC,-0.228
ATGAGGCC,-0.199

# Study 3 — technique: RNAcompete; molecule type: RNA; medium: in vitro; tested at: 20 nM; setting: 7-mer, probes averaged, single round; relative to: mean of 7-mers; direction: higher = stronger binding
# Target: PABPC1L2, full length, GST fusion (mouse, UniProt A0ABA7IW68)
# Construct (chain): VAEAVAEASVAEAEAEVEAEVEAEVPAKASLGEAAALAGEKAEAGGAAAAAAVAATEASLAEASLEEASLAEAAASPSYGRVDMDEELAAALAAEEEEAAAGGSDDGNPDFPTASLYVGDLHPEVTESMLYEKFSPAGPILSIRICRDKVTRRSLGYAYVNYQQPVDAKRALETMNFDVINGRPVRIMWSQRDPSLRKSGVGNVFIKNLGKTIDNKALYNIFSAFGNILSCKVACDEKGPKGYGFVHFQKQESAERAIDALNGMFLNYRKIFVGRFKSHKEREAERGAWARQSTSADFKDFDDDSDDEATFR
Strand,7-mer Z-score
UACAUAU,-0.0772
CGAGCGC,-0.282
GUUGUCA,-0.345
CCCUCGU,-0.467
ACUGAAC,-0.101
CGGGAUA,0.233
CGAUACC,-0.177
UUUGUCC,-0.485
AGAGUGA,-0.224
GGCGGGA,0.461
CGGACGG,0.00798
AGCCAAU,-0.0573
AUUCUCC,-0.403
GGAUAGU,-0.124
CAAACUU,0.0787
UUAACGA,-0.0228
UCUGUUA,-0.393

# Study 4 — technique: RNA Bind-n-Seq; molecule type: RNA; medium: in vitro; tested at: 365 nM; relative to: no-protein control; direction: higher = stronger binding
# Target: RNA binding protein fox-1 homolog 2, RRM domain, GST-SBP tag (RBFOX2, Homo sapiens, UniProt O43251-10, residues 100-194)
# Setting: natural RNA segment, single round, ends assumed
# Target sequence (chain): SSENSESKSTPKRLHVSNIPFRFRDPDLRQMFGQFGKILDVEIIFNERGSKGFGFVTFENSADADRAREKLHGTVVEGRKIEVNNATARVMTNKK
Strand,RBNS enrichment (R)
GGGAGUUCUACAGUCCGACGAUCUACCAGCAGAGUAAAUGUGGCCAUUGACUGGCCUAAGCAUUCUCUAAGAGUUGUGCUAGAUGGCUUCCAUGAUCUUGUCAAACCUAGAAAUUCCAAAAUCUCGAGGAAGCUGGAAUUCUCGGGUGCCAA,0.246
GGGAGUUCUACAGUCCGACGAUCAGGAAAAAGAAUGAUUGAUGUAUCCUAAGUAUUGUUAUUUGUUGUCUUUUUUUGCUGCCUUGCUUGAGUUGCUUGUGACUGAUCUUUUGAGGCUGUCAUCAUGGCUAGGGUGGAAUUCUCGGGUGCCAA,6.21
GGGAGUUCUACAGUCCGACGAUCGAAAUAAAUGUGAUUUUUGUCCGAUCCUUCUGGUUUUCAUGAAGAUUAGCUGCCAUGUUUUAUUCUUAUAAGGAAAAGCACAGAGAUCAUUAAAGUAAGUUUUACAAUAAUGGAAUUCUCGGGUGCCAA,0.373
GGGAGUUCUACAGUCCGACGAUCAACAGGACAAUCAAUUUAAGACAACAGAAAUAGAGAUUGUUAAAUAAAACCAUUAGUAUUUUACUUUGACUCAGUACCUUGGUUUGUCCCAACUGAAUAAGAGUUUGUAUUGGAAUUCUCGGGUGCCAA,0.526
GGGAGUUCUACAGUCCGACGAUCUCAUCGAACAUUGACGCAGGUGAUGCUACUCUGGAAGGACCUCAGGGCAGCCAGGUGUGCGUGUCUUGAAAUUACUGACUUGAGUUCUUGUAUCACAACUAAUUUCAGCUUGGAAUUCUCGGGUGCCAA,0.387
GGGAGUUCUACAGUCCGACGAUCAAUUAAAAAUGCCAAAUAUCGCGCCUCCAUCCUUUAUACUUCUAAAAUAAAAUCUCUAGUCCAAACACACUGACAGUAUUAUGUUUGCCUGAAUGUGAAACAUUCCUCCUUGGAAUUCUCGGGUGCCAA,1.1
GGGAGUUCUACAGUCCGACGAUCAGAUCCUGCUUCCAUCUCCAGCUUCUAGCACUCUCCUAGAGAGGGACAGACUGGAGCCAUGGCCUUAGGCCAUAUAGCCUUACUAUCAAGUGUCUUCCUCCACGCGGAUUUGGAAUUCUCGGGUGCCAA,0.206
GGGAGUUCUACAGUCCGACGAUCUCACUAAGCUGGCUGUGAAGAUUUUAAGUACAUUUCUGUGAAGACCUUAAAGUACUGUUCUUUAUUUAAUAAGAUACGCUACUACAUUGCUUUGUUUAUAAAUAGUUUAUUGGAAUUCUCGGGUGCCAA,1.22

# Study 5 — technique: protein binding microarray; molecule type: double-stranded DNA, one strand shown; medium: in vitro; tested at: not given; relative to: not given; direction: higher = stronger binding
# Target: Histone acetyltransferase KAT6A, winged helix 2, GST fusion (KAT6A, Homo sapiens, UniProt Q92794, residues 85-181)
# Setting: 8-mer, flanks averaged, mean of 2 arrays, mostly near background
# Residues (chain): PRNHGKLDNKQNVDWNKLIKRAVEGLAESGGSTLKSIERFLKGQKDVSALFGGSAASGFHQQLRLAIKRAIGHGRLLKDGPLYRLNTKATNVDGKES
Strand,E-score
CATGGAGC,0.0181
ACGGGGGC,0.0607
CAGGACCC,0.0174
GACCGATA,-0.00989
ATCAGTTG,-0.127
AATTAATA,0.254
AAATCCAG,0.042
CGGCCTGA,0.0554
CTACAGCA,0.138
GACAGGTA,-0.0941
AGCACTCG,0.0818
TGCATTAA,0.044
CGTTACCC,-0.0913
ACACACAT,-0.0188
GATTGGAC,0.0253
GCATTCGC,0.0337
AGTTCTTA,0.0843
GCGGTCCA,0.158
ATCAGCAC,0.0498
AGAGATCA,0.026
CGTTAGTC,-0.114
ACCGGAAA,-0.0619
CTGCTTTC,0.0228
TATACTCA,0.0184
TCACTGCA,0.172

# For quick reference, copied from above (study 2):
Strand,E-score
GCCCCCAC,-0.228
CTAGTCTC,-0.0209
AGAAGAGA,0.0111
CGAACGTC,-0.158
CAGAGTAA,-0.0157
CTGAGCCA,-0.252
AATCAATG,0.237
ATGAGGCC,-0.199
GGGGCTGA,-0.167
ACCCCGGC,-0.293
